Published values collected from several papers.
Parts stem from different laboratories: compare values within a part only.

Block 1
Target: Prothrombin, mature alpha-thrombin (F2, Homo sapiens, UniProt P00734)
Method: aptamer microarray, sandwich
Molecule type: DNA with 2'F-ANA
Sample: in vitro
Concentration: 200 nM
Notes: whole 15-mer aptamer, many near background
Together with: Cy3 exosite-II aptamer, 400 nM
Reading: higher = stronger binding
Strand: GGTTGGTGTGGTTGG
Modification | mean fluorescence intensity
2'F-ANA at 1 2 3 8 9 10 12 14 | 54.7 a.u.
2'F-ANA at 1 4 5 9 12 | 118 a.u.
2'F-ANA at 2 3 6 7 11 12 | 868 a.u.
2'F-ANA at 1 4 5 7 9 10 11 12 | 49.1 a.u.
2'F-ANA at 2 3 5 7 8 12 13 14 | 60.8 a.u.
2'F-ANA at 2 3 4 6 10 12 15 | 276 a.u.

Block 2
Target: Histone acetyltransferase KAT6A, winged helix 2, GST fusion (KAT6A, Homo sapiens, UniProt Q92794, residues 85-181)
Method: protein binding microarray
Molecule type: double-stranded DNA, one strand shown
Sample: in vitro
Concentration: not given
Notes: 8-mer, flanks averaged, mean of 2 arrays, mostly near background
Baseline: not given
Reading: higher = stronger binding
Construct (chain): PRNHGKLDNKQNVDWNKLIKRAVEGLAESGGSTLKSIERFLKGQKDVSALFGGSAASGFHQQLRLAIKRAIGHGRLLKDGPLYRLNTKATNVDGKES
Strand | E-score
AGACACCC | -0.0785
CAGTAGCC | 0.0639
GAAGACAC | -0.0401
ACCCGGAG | 0.226
GTTGCCTA | 0.0719
ATGAGATG | 0.0179

Block 3
Target: Interferon regulatory factor 5, full length, phosphomimetic (IRF5, Homo sapiens, UniProt Q13568-2, residues 1-514, S451D/S453D/S456D/S462D)
Method: protein-binding microarray
Molecule type: double-stranded DNA, one strand shown
Sample: in vitro
Concentration: 940 nM top
Notes: 60-bp whole probe
Together with: salmon DNA 0.4 mg/ml
Baseline: random background probes
Reading: higher = stronger binding
Shared flanks, not repeated: GCCTAGCAC … GTCTTGATTCGCTTGACGCTGCTG
Strand | fitted relative affinity [z-score]
GACGGTCTGGGGTATCGGGACGTGCTA | 0.525
GACGGACTGCTACTGCTGCCGTGCTAG | -0.547
GACGGACTGCATATCCTGACGTGCTAG | -0.475
CTAGTTGTGATTCTTTCGATGTGCTAG | 1.4
TTAGATTTCGGGTCTGGATTAGTGCTA | 1.26
GACGATTTCGGGACTGGAGAAGTGCTA | 0.143
TTTGATTTCAGTTTCGATTAGTGCTAG | 9.8

Further values, each from its own experiment
Molecule | target | assay | system | conditions | scale | quantity | result
PhoQ, residues 284 288 289 292 302 303 SASVAL | PhoP, residues 12 14 15 18 19 TQAIL (Escherichia coli, UniProt P23836) | Sort-seq, item: YFP reporter | E. coli | PhoQ-PhoP variant library, together with: 10 µM Mg2+ | baseline: high Mg2+ state, higher = stronger signaling | fold induction | 3.81
